# Measurements pooled from the literature.
# Numbers after ± are the reported error.
# Organism: Escherichia coli
Compound,test,test system,conditions,how to read,measurement,value
CO[C@@H]1[C@@H](OC)[C@H]2O[C@H]3[C@H](OC)[C@@H](OC)[C@@H](O[C@H]4[C@H](OC)[C@@H](OC)[C@@H](O[C@H]5[C@H](OC)[C@@H](OC)[C@@H](O[C@H]6[C@H](OC)[C@@H](OC)[C@@H](O[C@H]7[C@H](OC)[C@@H](OC)[C@@H](O[C@@H]1[C@@H](Cn1cc(CCCC(=O)N[C@H]8CCOC8=O)nn1)O2)O[C@@H]7Cn1cc(CCCC(=O)N[C@H]2CCOC2=O)nn1)O[C@@H]6Cn1cc(CCCC(=O)N[C@H]2CCOC2=O)nn1)O[C@@H]5Cn1cc(CCCC(=O)N[C@H]2CCOC2=O)nn1)O[C@@H]4Cn1cc(CCCC(=O)N[C@H]2CCOC2=O)nn1)O[C@@H]3Cn1cc(CCCC(=O)N[C@H]2CCOC2=O)nn1,"LuxR reporter, antagonist",DH5α sensor strain,"1 µM, with: OHHL 200 nM",,inhibition,3 ± 1%
CC[C@H](C)[C@H](NC(=O)[C@H](CC1CCCCC1)NC(=O)[C@@H](NC(=O)[C@@H](N)CCCN)c1ccccc1)C(=O)N[C@H](Cc1ccccc1)C(=O)N[C@@H](Cc1cn(Cc2ccccc2)cn1)C(N)=O,bacterial growth,ATCC 35218,,,IC50,> 20 µg/mL
CC(CCCOC(=O)CCC[N+](C)(C)C)C1CCC2C3CCC4CC(OC(=O)CCC[N+](C)(C)C)CCC4(C)C3CC(OC(=O)CCC[N+](C)(C)C)C12C (stereo not shown),"microbial growth, disc diffusion",ATCC25922,"250 µg/disc, 24 h",,inhibition zone,11 mm
N=C(N)NCCC[C@@H]1NC(=O)[C@H](CCCNC(=N)N)NC(=O)[C@@H](C(c2ccccc2)c2ccccc2)NC(=O)[C@H](Cc2c[nH]c3ccccc23)NC(=O)[C@@H](C(c2ccccc2)c2ccccc2)NC(=O)[C@@H](CCCNC(=N)N)NC(=O)[C@@H](CCCNC(=N)N)NC1=O,,ATCC BAA-2452,4 x MIC,,time to complete killing,2 h
CC[C@H](C)[C@H](NC(=O)[C@H](CCCN)NC(=O)[C@H](CC(N)=O)NC(=O)[C@H](Cc1c[nH]c2ccccc12)NC(=O)[C@H](Cc1ccccc1)NC(=O)[C@H](CCCN)NC(=O)[C@H](CCCCNC(=N)N)NC(=O)[C@H](CC(C)C)NC(=O)[C@H](Cc1c[nH]c2ccccc12)NC(=O)[C@H](CCCN)NC(=O)[C@H](CCCCNC(=N)N)NC(=O)[C@H](CC(C)C)NC(=O)CNC(C)=O)C(=O)N[C@@H](CCCN)C(=O)N[C@@H](CCCCNC(=N)N)C(N)=O,,ATCC 25922,"concentration not given, with: KCl 4.5 mM",relative to: no added salt,MIC fold change,1 fold
CCCC(=O)Oc1c(C)c(OC)c2c(/C=C/c3ccccc3)c(CC)c(=O)oc2c1C,"microbial killing, broth dilution",ATCC25922,,,MBC,> 5000 µg/mL
CC(CCCOC(=O)CCC[N+](C)(C)C)C1CCC2C3C(OC(=O)CCC[N+](C)(C)C)CC4CC(OC(=O)CCC[N+](C)(C)C)CCC4(C)C3CC(OC(=O)CCC[N+](C)(C)C)C12C (stereo not shown),"microbial growth, disc diffusion",ATCC25922,"250 µg/disc, 24 h",,inhibition zone,10 mm
O=c1cccccc1O,"microbial growth, broth dilution",ATCC35218,,,MIC80,> 100 µM
O=C(CCCc1cn(C[C@H]2O[C@@H]3O[C@H]4[C@H](O)[C@@H](O)[C@@H](O[C@H]5[C@H](O)[C@@H](O)[C@@H](O[C@H]6[C@H](O)[C@@H](O)[C@@H](O[C@H]7[C@H](O)[C@@H](O)[C@@H](O[C@H]8[C@H](O)[C@@H](O)[C@@H](O[C@H]9[C@H](O)[C@@H](O)[C@@H](O[C@H]2[C@H](O)[C@H]3O)O[C@@H]9CO)O[C@@H]8CO)O[C@@H]7CO)O[C@@H]6CO)O[C@@H]5CO)O[C@@H]4CO)nn1)N[C@H]1CCOC1=O,"LuxR reporter, antagonist",DH5α sensor strain,"40 µM, with: OHHL 200 nM",,inhibition,7 ± 6%
CC(C)c1ccc2c(c1)CCC1C(C)(CN(CC(O)C[N+](C)(C)C)CC(O)C[N+](C)(C)C)CCCC21C (stereo not shown),"microbial growth, disc diffusion",ATCC25922,"125 µg/disc, 24 h",,inhibition zone,8 mm
OC[C@H]1O[C@@H]2O[C@H]3[C@H](O)[C@@H](O)[C@@H](O[C@H]4[C@H](O)[C@@H](O)[C@@H](O[C@H]5[C@H](O)[C@@H](O)[C@@H](O[C@H]6[C@H](O)[C@@H](O)[C@@H](O[C@H]7[C@H](O)[C@@H](O)[C@@H](O[C@H]1[C@H](O)[C@H]2O)O[C@@H]7CO)O[C@@H]6CO)O[C@@H]5CO)O[C@@H]4CO)O[C@@H]3CO,"LuxR reporter, antagonist",DH5α sensor strain,"40 µM, with: OHHL 200 nM",,inhibition,4 ± 6%
C=CCOc1c(C)c(OC)c(C(=O)/C=C/c2ccccc2)c(OCC=C)c1C,"microbial killing, broth dilution",ATCC25922,,,MBC,> 5000 µg/mL
CC[C@H](C)[C@H](NC(=O)[C@H](CC1CCCCC1)NC(=O)[C@H](CC(C)C)NC(=O)[C@@H](N)CCCN)C(=O)N[C@H](Cc1ccccc1)C(=O)N[C@@H](Cc1cn(Cc2ccccc2)cn1)C(N)=O,bacterial growth,ATCC 35218,,,IC50,> 20 µg/mL
COc1cc2c(cc1OC)-c1cc3ccc(OC)c(OC)c3c[n+]1CC2.[Cl][Fe-]([Cl])([Cl])[Cl],,,"24 h, 37 °C",,MBC,> 800 µM
COc1c(C)c(OS(=O)(=O)c2ccccc2)c(C)c(OS(=O)(=O)c2ccccc2)c1C(=O)/C=C/c1ccccc1,"microbial killing, broth dilution",ATCC25922,,,MBC,> 5000 µg/mL
O=C(CCCc1cn(C[C@H]2O[C@@H]3O[C@H]4[C@H](O)[C@@H](O)[C@@H](O[C@H]5[C@H](O)[C@@H](O)[C@@H](O[C@H]6[C@H](O)[C@@H](O)[C@@H](O[C@H]7[C@H](O)[C@@H](O)[C@@H](O[C@H]8[C@H](O)[C@@H](O)[C@@H](O[C@H]9[C@H](O)[C@@H](O)[C@@H](O[C@H]2[C@H](O)[C@H]3O)O[C@@H]9Cn2cc(CCCC(=O)N[C@H]3CCOC3=O)nn2)O[C@@H]8Cn2cc(CCCC(=O)N[C@H]3CCOC3=O)nn2)O[C@@H]7Cn2cc(CCCC(=O)N[C@H]3CCOC3=O)nn2)O[C@@H]6Cn2cc(CCCC(=O)N[C@H]3CCOC3=O)nn2)O[C@@H]5Cn2cc(CCCC(=O)N[C@H]3CCOC3=O)nn2)O[C@@H]4Cn2cc(CCCC(=O)N[C@H]3CCOC3=O)nn2)nn1)N[C@H]1CCOC1=O,"LuxR reporter, antagonist",DH5α sensor strain,"40 µM, with: OHHL 200 nM",,inhibition,53 ± 3%
Cc1ccnc(-c2cc(C(=O)NCCCCCC(=O)N[C@@H](CCCNC(=N)N)C(=O)N[C@@H](Cc3c[nH]c4ccccc34)C(=O)N[C@@H](CCCNC(=N)N)C(=O)N[C@@H](Cc3c[nH]c4ccccc34)C(=O)N[C@@H](CCCNC(=N)N)C(=O)N[C@@H](Cc3c[nH]c4ccccc34)C(N)=O)ccn2)c1,,resistant,"16 µM, light irradiation",,reduction in viable count,≥ 3 log10 CFU
O=C(CCCc1cn(C[C@H]2O[C@@H]3O[C@H]4[C@H](O)[C@@H](O)[C@@H](O[C@H]5[C@H](O)[C@@H](O)[C@@H](O[C@H]6[C@H](O)[C@@H](O)[C@@H](O[C@H]7[C@H](O)[C@@H](O)[C@@H](O[C@H]8[C@H](O)[C@@H](O)[C@@H](O[C@H]2[C@H](O)[C@H]3O)O[C@@H]8Cn2cc(CCCC(=O)N[C@H]3CCOC3=O)nn2)O[C@@H]7Cn2cc(CCCC(=O)N[C@H]3CCOC3=O)nn2)O[C@@H]6Cn2cc(CCCC(=O)N[C@H]3CCOC3=O)nn2)O[C@@H]5Cn2cc(CCCC(=O)N[C@H]3CCOC3=O)nn2)O[C@@H]4Cn2cc(CCCC(=O)N[C@H]3CCOC3=O)nn2)nn1)N[C@H]1CCOC1=O,"LuxR reporter, agonist",DH5α sensor strain,1 µM,,bioluminescence,890 ± 99 RLU
CC(C)C1=CC2=CCC3C(C)(C(=O)OCCC[N+](C)(C)C)CCCC3(C)C2CC1 (stereo not shown),"microbial growth, disc diffusion",ATCC25922,"125 µg/disc, 24 h",,inhibition zone,10 mm
CO[C@@H]1[C@@H](OC)[C@H]2O[C@H]3[C@H](OC)[C@@H](OC)[C@@H](O[C@H]4[C@H](OC)[C@@H](OC)[C@@H](O[C@H]5[C@H](OC)[C@@H](OC)[C@@H](O[C@H]6[C@H](OC)[C@@H](OC)[C@@H](O[C@H]7[C@H](OC)[C@@H](OC)[C@@H](O[C@H]8[C@H](OC)[C@@H](OC)[C@@H](O[C@@H]1[C@@H](Cn1cc(CCCC(=O)N[C@H]9CCOC9=O)nn1)O2)O[C@@H]8Cn1cc(CCCC(=O)N[C@H]2CCOC2=O)nn1)O[C@@H]7Cn1cc(CCCC(=O)N[C@H]2CCOC2=O)nn1)O[C@@H]6Cn1cc(CCCC(=O)N[C@H]2CCOC2=O)nn1)O[C@@H]5Cn1cc(CCCC(=O)N[C@H]2CCOC2=O)nn1)O[C@@H]4Cn1cc(CCCC(=O)N[C@H]2CCOC2=O)nn1)O[C@@H]3Cn1cc(CCCC(=O)N[C@H]2CCOC2=O)nn1,"LuxR reporter, antagonist",DH5α sensor strain,"1 µM, with: OHHL 200 nM",,inhibition,6%
CCCCCCCCCC(=O)Oc1c(C)c(OC)c2c(c1C)OC(=O)C(CCCCCCCC)C2(O)C=Cc1ccccc1 (stereo not shown),"microbial growth, well diffusion",ATCC25922,5 µg/mL,,inhibition zone,11 mm
O=c1c(O)ccc(-c2ccccc2)cc1O,"microbial growth, broth dilution",ATCC35218,,,MIC80,66.7 µM

# For quick reference, copied from above:
Compound,test,test system,conditions,how to read,measurement,value
CC[C@H](C)[C@H](NC(=O)[C@H](CC1CCCCC1)NC(=O)[C@H](CC(C)C)NC(=O)[C@@H](N)CCCN)C(=O)N[C@H](Cc1ccccc1)C(=O)N[C@@H](Cc1cn(Cc2ccccc2)cn1)C(N)=O,bacterial growth,ATCC 35218,,,IC50,> 20 µg/mL
CC(C)c1ccc2c(c1)CCC1C(C)(CN(CC(O)C[N+](C)(C)C)CC(O)C[N+](C)(C)C)CCCC21C (stereo not shown),"microbial growth, disc diffusion",ATCC25922,"125 µg/disc, 24 h",,inhibition zone,8 mm
